{"data": "Results pooled from the literature", "note": "A part holds a random share of what one study measured.", "sequence of UniProt O15294 (whole entry, looked up)": "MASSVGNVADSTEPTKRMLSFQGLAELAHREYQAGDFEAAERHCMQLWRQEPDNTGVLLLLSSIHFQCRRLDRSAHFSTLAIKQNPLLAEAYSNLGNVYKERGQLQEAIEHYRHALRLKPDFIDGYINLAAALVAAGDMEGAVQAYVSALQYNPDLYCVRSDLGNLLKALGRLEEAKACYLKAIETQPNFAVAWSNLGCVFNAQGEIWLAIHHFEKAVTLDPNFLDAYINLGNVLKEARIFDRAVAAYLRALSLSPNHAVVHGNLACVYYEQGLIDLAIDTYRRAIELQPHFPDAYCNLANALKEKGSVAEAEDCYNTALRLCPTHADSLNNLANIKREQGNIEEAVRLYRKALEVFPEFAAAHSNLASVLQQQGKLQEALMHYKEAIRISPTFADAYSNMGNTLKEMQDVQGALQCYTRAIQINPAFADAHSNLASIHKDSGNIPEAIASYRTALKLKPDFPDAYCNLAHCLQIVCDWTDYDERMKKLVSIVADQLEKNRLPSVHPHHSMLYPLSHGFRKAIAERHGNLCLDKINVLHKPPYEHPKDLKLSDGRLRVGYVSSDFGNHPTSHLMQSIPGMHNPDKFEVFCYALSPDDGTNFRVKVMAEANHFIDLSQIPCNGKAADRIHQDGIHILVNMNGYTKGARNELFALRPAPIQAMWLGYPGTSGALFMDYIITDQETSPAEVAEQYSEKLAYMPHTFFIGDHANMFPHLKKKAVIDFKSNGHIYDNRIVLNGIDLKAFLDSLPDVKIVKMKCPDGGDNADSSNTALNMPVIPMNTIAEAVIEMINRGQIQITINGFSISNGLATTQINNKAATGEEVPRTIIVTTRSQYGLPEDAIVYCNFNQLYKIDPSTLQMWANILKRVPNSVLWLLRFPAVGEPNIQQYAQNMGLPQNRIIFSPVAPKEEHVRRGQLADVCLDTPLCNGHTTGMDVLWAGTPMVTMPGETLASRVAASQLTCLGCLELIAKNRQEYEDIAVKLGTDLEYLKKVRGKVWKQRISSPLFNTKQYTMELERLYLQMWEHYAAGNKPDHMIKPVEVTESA"}
{"data": "Block 1", "target": "Sal-like protein 4, full length isoform B (SALL4, Homo sapiens, UniProt Q9UJQ4-2, residues 1-616)", "technique": "universal PBM", "molecule type": "double-stranded DNA, one strand shown", "matrix": "in vitro", "concentration": "not given", "notes": "8-mer, flanks averaged, mean of replicates", "reading": "higher = stronger binding"}
{"Sequence": "GAACCACC", "E-score": -0.153}
{"Sequence": "CCGTCTCA", "E-score": -0.165}
{"Sequence": "CGGTAAGA", "E-score": -0.212}
{"Sequence": "AACGTAAA", "E-score": 0.286}
{"Sequence": "ATTACAGC", "E-score": 0.101}
{"Sequence": "ATCATCTC", "E-score": 0.151}
{"Sequence": "CAACTTAG", "E-score": 0.00702}
{"Sequence": "AGAAGCGG", "E-score": -0.165}
{"data": "Block 2", "target": "RING finger protein unkempt homolog, zinc fingers 1-6, GST-SBP tag (UNK, Homo sapiens, UniProt Q9C0B0, residues 30-357)", "technique": "RNA Bind-n-Seq", "molecule type": "RNA", "matrix": "in vitro", "concentration": "not given", "notes": "RNA with constant flanks, human and mouse sites, ends assumed", "relative to": "input RNA pool", "reading": "higher = stronger binding", "all sequences stand within": "GGGAGUUCUACAGUCCGACGAUC … CAACAGAGGAUUGAGCAUCA", "Construct (chain)": "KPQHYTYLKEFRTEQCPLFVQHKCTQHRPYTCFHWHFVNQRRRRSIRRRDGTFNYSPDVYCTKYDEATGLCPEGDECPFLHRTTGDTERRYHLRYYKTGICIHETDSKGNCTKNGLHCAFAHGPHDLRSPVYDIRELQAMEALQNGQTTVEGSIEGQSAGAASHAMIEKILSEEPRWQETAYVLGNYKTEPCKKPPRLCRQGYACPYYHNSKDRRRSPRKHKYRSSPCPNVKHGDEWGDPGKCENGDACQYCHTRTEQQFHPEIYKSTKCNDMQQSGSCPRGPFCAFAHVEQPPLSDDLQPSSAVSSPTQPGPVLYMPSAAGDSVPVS"}
{"Sequence": "UGGGUGGCAAAAUCCCUUGUUAAAGGAGGUCUGUGCAGGAGGGUUCUUGUUCAGGUCUCUUAUGCUAUUGGAGUUUCUCAUCCAUUGUCGAUCUCCAUUUUCCAUUAUGGCACUUCUCAG", "bound/input enrichment [ratio]": 0.0877}
{"Sequence": "GGCUUUAUUUUGUGCCAUGGGAUCCUAAAUACUGACGCUACAGCACUGAACCUUUGGAAACUAGCUCUUCAAAGUAGCUCUUGCCUCUCUCUCUUUCGGGAUGAAGUUUUCCACAUUCAC", "bound/input enrichment [ratio]": 0.181}
{"Sequence": "CCUCUGGCCACAUAUGCCCCUGUCAUCUCUGCUGAGAAAGCCUACCACGAACAGCUUACUGUAGCAGAGAUCACCAAUGCUUGCUUUGAGCCAGCCAACCAGAUGGUGAAAUGUGACCCU", "bound/input enrichment [ratio]": 0.103}
{"Sequence": "AAAGGACUUACUGAGCAGCAAAAGGAAGGCAUCCGCAUGGUGACAAGGGUGAUGCUGUCCUUAGAAGGCGAAGACGGGCUGGAUGAAAUUUAUUCCUUCAGUGAGAGUCUACGACAACUG", "bound/input enrichment [ratio]": 0.189}
{"Sequence": "GCUGCCUGCACAGAGAAGAAAAUCCCUGUUGUGUUUAGACUACAAGAGGGUUAUGAUCAUAGCUACUACUUCAUUGCAACUUUCAUCGCUGACCACAUCAGACACCAUGCUAAGUACCUG", "bound/input enrichment [ratio]": 0.227}
{"Sequence": "AGUUUCAGUAUCUCUGGCUGGAGUAUUGACUCACAAAAAGAACCAUCCAGAGAGCACAGUUAGCAUUAUGUCCCUGUGUGUGAGUGCUGUUACUUACGCCGUUUUGUAUCGUACAGUACA", "bound/input enrichment [ratio]": 0.32}
{"Sequence": "GCUGUGUCCUGCCCAGCUGGCUUCAGUUAUAUUUACCUUCUAUCUCCUCCCCACAAAUCUUUCUUUGCCAAAUACCUCUGGUUUUCUCACCUGGAAACAUAUACUGUGUGUAAAAGAGUU", "bound/input enrichment [ratio]": 1.79}
{"Sequence": "CCGGAGCAAAUUUUUCAGAACAUAAAACAAGAAUAUAGUCGUUAUCAGAGGUGGAGACAUUUAGAAGUUGUUCUUAAUCAGAGUGAAGCUUGUGCUUCGGAAAGUCAACCUCACUCCUCA", "bound/input enrichment [ratio]": 1.85}
{"data": "Further values, each from its own experiment"}
{"Molecule": "AGPS (Homo sapiens, UniProt O00116)", "tested on": "HSD17B4 (Homo sapiens, UniProt P51659)", "test": "cross-linking MS", "test system": "cell fractions", "conditions": "together with: DMTMM", "endpoint": "cross-linked residues", "result": "E170 to K184"}
{"Molecule": "HGIYWRGLADHGLD", "tested on": "OGT (Homo sapiens, UniProt O15294)", "test": "binding, phage display NGS", "test system": "peptide", "conditions": "concentration not given", "scale": "relative to: input library", "endpoint": "enrichment fold change", "result": 5.03}
{"Molecule": "PGRMC1 (Homo sapiens, UniProt O00264)", "tested on": "RPN1 (Homo sapiens, UniProt P04843)", "test": "cross-linking MS", "conditions": "hits only", "endpoint": "interaction screen", "result": "cross-linked"}
{"Molecule": "PSMC2 (Homo sapiens, UniProt P35998)", "tested on": "PSMC6 (Homo sapiens, UniProt P62333)", "test": "cross-linking MS", "conditions": "hits only", "endpoint": "interaction screen", "result": "cross-linked"}
{"Molecule": "PES1 (Homo sapiens, UniProt O00541)", "tested on": "BOP1 (Homo sapiens, UniProt Q14137)", "test": "cross-linking MS", "test system": "cell fractions", "conditions": "together with: DMTMM", "endpoint": "cross-linked residues", "result": "K121 to E287"}
